Assay results pooled from the literature.
± marks the error that the study gave.
Isochorismatase domain-containing protein 1: Isochorismatase domain-containing protein 1 (Homo sapiens, UniProt Q96CN7)
Sequence of UniProt Q96CN7 (whole entry, looked up): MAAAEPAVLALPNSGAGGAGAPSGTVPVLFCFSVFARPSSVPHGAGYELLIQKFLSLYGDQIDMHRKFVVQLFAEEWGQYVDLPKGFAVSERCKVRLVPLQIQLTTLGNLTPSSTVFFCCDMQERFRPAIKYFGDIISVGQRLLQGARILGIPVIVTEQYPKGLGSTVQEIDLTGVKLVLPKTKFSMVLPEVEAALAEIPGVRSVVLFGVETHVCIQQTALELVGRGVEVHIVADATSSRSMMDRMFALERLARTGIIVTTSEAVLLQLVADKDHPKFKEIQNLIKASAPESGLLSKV
CTSD: Cathepsin D (CTSD, Homo sapiens, UniProt P07339)
Sequence of UniProt P07339 (whole entry, looked up): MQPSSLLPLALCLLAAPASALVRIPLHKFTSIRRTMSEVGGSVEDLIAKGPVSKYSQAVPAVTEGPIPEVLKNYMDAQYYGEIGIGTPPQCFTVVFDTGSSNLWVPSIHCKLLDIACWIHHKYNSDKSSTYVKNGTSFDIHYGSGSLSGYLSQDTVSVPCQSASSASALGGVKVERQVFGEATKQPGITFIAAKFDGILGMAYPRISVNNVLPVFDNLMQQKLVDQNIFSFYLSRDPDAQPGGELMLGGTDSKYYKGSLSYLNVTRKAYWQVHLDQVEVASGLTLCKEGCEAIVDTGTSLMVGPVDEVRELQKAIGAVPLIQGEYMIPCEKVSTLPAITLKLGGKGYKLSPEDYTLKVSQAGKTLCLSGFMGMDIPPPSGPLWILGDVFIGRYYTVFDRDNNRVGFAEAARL
Sequence of UniProt Q12805 (whole entry, looked up): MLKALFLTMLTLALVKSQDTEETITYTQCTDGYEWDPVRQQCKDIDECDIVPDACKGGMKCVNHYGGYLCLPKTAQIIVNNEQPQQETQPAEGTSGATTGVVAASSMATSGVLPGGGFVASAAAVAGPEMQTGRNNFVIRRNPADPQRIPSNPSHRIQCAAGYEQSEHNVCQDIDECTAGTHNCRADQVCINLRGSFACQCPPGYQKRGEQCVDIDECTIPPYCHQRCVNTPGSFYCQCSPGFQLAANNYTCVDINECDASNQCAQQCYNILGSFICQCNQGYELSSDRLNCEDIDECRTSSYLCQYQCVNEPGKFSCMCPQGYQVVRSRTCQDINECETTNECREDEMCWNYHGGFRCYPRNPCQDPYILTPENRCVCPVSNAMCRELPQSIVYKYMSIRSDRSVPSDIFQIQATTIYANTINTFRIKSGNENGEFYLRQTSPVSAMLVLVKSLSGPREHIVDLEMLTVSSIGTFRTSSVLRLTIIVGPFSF
Sequence of UniProt O60895 (whole entry, looked up): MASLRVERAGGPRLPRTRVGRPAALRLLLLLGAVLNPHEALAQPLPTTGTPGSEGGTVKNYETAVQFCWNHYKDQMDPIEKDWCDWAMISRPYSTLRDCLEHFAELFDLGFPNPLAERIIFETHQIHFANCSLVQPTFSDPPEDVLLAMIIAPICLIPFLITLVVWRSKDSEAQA
Sequence of UniProt P52003 (whole entry, looked up): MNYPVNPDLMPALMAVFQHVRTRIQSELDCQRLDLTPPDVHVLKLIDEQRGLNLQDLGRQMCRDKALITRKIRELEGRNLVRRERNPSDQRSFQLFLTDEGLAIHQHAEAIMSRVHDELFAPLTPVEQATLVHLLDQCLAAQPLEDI
Sequence of UniProt Q92529 (whole entry, looked up): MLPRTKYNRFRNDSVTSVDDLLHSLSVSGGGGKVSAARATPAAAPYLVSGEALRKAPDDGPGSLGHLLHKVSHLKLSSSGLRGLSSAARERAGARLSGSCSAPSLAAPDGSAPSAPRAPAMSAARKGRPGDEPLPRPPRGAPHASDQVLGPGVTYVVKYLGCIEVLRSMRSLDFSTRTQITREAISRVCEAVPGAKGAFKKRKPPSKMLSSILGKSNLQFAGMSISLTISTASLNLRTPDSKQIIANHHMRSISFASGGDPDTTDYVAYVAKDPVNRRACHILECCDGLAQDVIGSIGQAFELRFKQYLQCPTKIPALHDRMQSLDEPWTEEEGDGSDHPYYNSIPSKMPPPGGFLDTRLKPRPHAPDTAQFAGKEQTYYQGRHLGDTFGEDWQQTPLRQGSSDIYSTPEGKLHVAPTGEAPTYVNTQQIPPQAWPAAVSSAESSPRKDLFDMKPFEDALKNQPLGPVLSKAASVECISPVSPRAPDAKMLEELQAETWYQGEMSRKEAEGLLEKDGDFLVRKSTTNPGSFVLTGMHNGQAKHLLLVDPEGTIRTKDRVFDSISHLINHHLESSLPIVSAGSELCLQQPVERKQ
Sequence of UniProt P12710 (whole entry, looked up): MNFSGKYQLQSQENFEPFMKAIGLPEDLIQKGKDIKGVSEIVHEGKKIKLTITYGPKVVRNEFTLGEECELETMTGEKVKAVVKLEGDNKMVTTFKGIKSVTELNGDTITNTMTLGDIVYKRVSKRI
Sequence of UniProt Q9BXJ9 (whole entry, looked up): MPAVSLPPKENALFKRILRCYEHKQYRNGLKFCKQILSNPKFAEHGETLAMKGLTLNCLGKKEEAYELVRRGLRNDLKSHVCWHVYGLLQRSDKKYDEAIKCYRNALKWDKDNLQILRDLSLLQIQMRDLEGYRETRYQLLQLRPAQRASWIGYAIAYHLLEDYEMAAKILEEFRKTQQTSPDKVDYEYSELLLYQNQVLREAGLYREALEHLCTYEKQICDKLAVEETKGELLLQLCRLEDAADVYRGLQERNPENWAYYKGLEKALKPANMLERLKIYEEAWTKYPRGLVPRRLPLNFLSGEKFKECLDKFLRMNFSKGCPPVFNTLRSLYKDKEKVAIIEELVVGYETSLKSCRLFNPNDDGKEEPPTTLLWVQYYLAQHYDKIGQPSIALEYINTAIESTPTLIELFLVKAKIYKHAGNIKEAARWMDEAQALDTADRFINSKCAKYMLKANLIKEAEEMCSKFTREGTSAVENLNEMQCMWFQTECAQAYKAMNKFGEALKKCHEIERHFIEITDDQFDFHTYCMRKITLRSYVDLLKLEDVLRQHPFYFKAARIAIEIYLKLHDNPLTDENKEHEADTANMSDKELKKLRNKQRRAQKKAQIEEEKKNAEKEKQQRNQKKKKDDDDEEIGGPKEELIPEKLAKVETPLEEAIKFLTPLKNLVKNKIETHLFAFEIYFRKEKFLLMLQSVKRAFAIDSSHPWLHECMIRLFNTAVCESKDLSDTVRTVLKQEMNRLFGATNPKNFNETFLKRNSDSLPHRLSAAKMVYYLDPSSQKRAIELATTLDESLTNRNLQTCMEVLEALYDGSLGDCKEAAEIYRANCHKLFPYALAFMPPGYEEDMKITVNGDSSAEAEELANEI
Sequence of UniProt P94040 (whole entry, looked up): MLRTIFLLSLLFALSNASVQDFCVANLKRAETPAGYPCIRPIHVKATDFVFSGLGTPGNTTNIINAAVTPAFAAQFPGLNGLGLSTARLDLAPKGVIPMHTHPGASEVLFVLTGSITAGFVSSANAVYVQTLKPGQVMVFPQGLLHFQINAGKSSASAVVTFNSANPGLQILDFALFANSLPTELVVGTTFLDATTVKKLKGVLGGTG
Sequence of UniProt P30988 (whole entry, looked up): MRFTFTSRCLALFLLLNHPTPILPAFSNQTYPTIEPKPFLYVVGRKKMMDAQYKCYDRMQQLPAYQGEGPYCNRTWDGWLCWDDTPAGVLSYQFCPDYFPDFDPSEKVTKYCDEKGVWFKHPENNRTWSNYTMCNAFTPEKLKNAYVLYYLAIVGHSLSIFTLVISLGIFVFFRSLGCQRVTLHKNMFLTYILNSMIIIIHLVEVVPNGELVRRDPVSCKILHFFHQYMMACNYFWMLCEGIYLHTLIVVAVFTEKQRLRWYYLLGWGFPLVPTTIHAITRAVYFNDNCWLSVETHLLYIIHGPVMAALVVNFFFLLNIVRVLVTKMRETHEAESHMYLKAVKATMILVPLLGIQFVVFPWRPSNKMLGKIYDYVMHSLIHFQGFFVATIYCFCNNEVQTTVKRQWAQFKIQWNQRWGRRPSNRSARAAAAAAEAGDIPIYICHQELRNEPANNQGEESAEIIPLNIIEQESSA
Sequence of UniProt Q06187 (whole entry, looked up): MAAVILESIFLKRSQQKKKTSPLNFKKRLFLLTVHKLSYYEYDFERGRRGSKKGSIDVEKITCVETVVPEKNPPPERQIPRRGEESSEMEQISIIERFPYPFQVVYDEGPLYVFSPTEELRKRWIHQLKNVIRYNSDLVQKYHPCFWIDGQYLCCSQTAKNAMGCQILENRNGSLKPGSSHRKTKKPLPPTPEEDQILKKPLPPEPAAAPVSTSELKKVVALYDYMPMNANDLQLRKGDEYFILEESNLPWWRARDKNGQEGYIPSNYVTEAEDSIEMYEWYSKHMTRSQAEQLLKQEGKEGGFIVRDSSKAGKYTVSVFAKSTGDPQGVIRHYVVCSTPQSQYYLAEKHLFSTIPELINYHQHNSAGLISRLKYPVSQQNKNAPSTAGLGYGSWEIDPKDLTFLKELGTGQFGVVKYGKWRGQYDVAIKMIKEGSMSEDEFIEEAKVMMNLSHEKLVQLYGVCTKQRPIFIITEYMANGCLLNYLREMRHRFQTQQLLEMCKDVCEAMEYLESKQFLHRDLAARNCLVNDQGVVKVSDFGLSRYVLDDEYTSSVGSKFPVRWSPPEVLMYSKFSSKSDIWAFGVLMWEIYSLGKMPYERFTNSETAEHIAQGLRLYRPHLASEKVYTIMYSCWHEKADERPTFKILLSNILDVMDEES
Sequence of UniProt Q16774 (whole entry, unmodified, looked up): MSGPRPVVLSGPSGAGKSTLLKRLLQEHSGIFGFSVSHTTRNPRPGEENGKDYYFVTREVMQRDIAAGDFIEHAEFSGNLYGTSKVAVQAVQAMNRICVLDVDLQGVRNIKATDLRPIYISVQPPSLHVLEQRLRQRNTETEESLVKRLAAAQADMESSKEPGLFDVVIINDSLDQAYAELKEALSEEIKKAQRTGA
Sequence of UniProt P40261 (whole entry, looked up): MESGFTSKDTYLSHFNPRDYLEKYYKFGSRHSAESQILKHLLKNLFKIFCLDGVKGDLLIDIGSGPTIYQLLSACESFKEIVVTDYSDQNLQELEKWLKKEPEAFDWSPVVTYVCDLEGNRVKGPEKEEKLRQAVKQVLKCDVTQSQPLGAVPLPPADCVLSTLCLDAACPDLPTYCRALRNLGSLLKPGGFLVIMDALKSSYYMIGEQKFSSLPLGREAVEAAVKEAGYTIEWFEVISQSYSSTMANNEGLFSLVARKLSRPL

CCCN1CCN(c2ccc(-c3cncc(Cl)c3N3CCC4(CCNC4=O)CC3)cc2)CC1  Kd (MED11 human; SILAC competition; LS174T-L5 lysate): 0.008 µM
Nc1cc(F)ccc1NC(=O)c1ccc(CNC(=O)/C=C/c2cccnc2)cc1  Kd (Isochorismatase domain-containing protein 1; inhibitor, competition pulldown; SW620 and MV4-11 lysate; 1 h): > 30.2 µM
CC(C)(COP(=O)(O)OP(=O)(O)OC[C@H]1O[C@@H](n2cnc3c(N)ncnc32)[C@H](O)[C@@H]1OP(=O)(O)O)[C@@H](O)C(=O)NCCC(=O)NCCS  Kd (N-alpha-acetyltransferase 15, NatA auxiliary subunit (Homo sapiens, UniProt Q9BXJ9); competitor, competition MS pulldown; SW-620 cell lysate; together with: photo-immobilized beads): 2.09 µM
CC(C)(Oc1ccc(C(=O)c2ccc(Cl)cc2)cc1)C(=O)O  Kd (Fatty acid-binding protein, liver (Mus musculus, UniProt P12710); native MS; mouse liver sample, 2-fold diluted; charge state 7+): 41.5 ± 6.1 µM
COc1ccc(F)cc1C(=O)NCc1ccc(-c2nn([C@@H](C)C(F)(F)F)c(N)c2C(N)=O)cc1  Kd (BTK (Homo sapiens, UniProt Q06187); surface plasmon resonance): 0.001 µM
Cc1cc2nc3c(=O)[nH]c(=O)nc-3n(C[C@H](O)[C@H](O)[C@H](O)COP(=O)(O)OP(=O)(O)OC[C@H]3O[C@@H](n4cnc5c(N)ncnc54)[C@H](O)[C@@H]3O)c2cc1C  Kd (EGF-containing fibulin-like extracellular matrix protein 1 (EFEMP1, Homo sapiens, UniProt Q12805); binding, MS pulldown competition; SW-620 cell lysate): 68.5 µM
Cn1cc(-c2ccc(S(=O)(=O)n3ccc(/C=C/C(=O)Nc4ccccc4N)c3)cc2)cn1  Kd (Isochorismatase domain-containing protein 1; inhibitor, competition pulldown; SW620 and MV4-11 lysate; 1 h): > 30.2 µM
C=CS(=O)(=O)c1ccc(Nc2nc(OCC3CCCCC3)c3nc[nH]c3n2)cc1  Kd (Kelch-like ECH-associated protein 1, Kelch domain C489A (KEAP1, Homo sapiens, UniProt Q14145, C489A); binding): 1.79 µM
NC(=O)N/N=C/c1ccc([N+](=O)[O-])o1  inhibition (THP-1; pyroptotic LDH release; 2 µM, 40 min, together with: LPS then nigericin): -15.9%
Cc1[nH]c2ccccc2c1CCNCc1ccc(/C=C/C(=O)NO)cc1  Kd (Isochorismatase domain-containing protein 1; inhibitor, competition pulldown; SW620 and MV4-11 lysate; 1 h): > 30.2 µM
NCCCC(=O)O  Kd (SLC6A6 (Homo sapiens, UniProt P31641, Y138A); microscale thermophoresis; Y138A mutant): no binding
C/C(=C\COP(=O)(O)OP(=O)(O)O)CO  Kd (Butyrophilin subfamily 3 member A3 (BTN3A3, Homo sapiens, UniProt O00478, R381H)): 0.78 µM
CCCN1CCN(c2cccc(-c3cnccc3N3CCCC4(CCNC4=O)C3)c2)CC1 (stereo not drawn)  Kd (LACTB (Homo sapiens, UniProt P83111); SILAC displacement; LS174T-L5 cell lysate): 0.608 µM
O=C(N[C@H]1COC(=O)[C@@H](NC(=O)c2cccc(O)c2[O-])COC(=O)[C@@H](NC(=O)c2cccc(O)c2[O-])COC1=O)c1cccc(O)c1[O-].[Fe+3]  Kd (uncharacterized protein (Bordetella pertussis, UniProt Q7VXW9); siderophore binding, fluorescence quenching titration; pH 6.5, room temperature, 100 mM NaCl, together with: ferric siderophore): ~1 µM
O=C(CCCCCCC(=O)Nc1ccc([C@H]2O[C@@H](CSc3nc(-c4ccccc4)c(-c4ccccc4)o3)C[C@@H](c3ccc(CO)cc3)O2)cc1)NO  Kd (Isochorismatase domain-containing protein 1; inhibitor, competition pulldown; SW620 and MV4-11 lysate; 1 h): > 30.2 µM
CC[C@H](C)[C@H](NC(=O)[C@H](CC(C)C)NC(=O)[C@H](Cc1ccc(OP(=O)(O)O)cc1)NC(=O)[C@H](CCC(=O)O)NC(=O)[C@H](CC(=O)O)NC(=O)[C@H](C)NC(=O)[C@H](CC(=O)O)NC(=O)[C@@H](NC(=O)[C@@H](NC(=O)[C@H](CC(=O)O)NC(=O)[C@H](CC(=O)O)NC(=O)[C@H](CCSC)NC(=O)c1ccc2c(c1)C(=O)OC21c2ccc(N(C)C)cc2Oc2cc(N(C)C)ccc21)C(C)C)C(C)C)C(=O)N1CCC[C@H]1C(=O)N[C@@H](CCC(N)=O)C(=O)N[C@@H](CCC(N)=O)C(=O)NCC(=O)N[C@@H](Cc1ccccc1)C(=O)N[C@@H](CC(=O)O)C(=O)O  Kd (SHC-transforming protein 3, SH2 domain (SHC3, Homo sapiens, UniProt Q92529); binding): 0.216 µM
O=C(O)Cc1c[nH]c2ccccc12  Kd (TMK1/GLP1, extracellular domain (Arabidopsis thaliana, UniProt P43298+P94040); binding, microscale thermophoresis): 0.525 µM
N=C1CCCN1Cc1nc(O)nc(O)c1Cl  inhibition (THP-1; pyroptotic LDH release; 2 µM, 40 min, together with: LPS then nigericin): 34.3%
CCCCC/C=C\C/C=C\CCCCCCCC(=O)O  Kd (5-lipoxygenase (Eriocheir sinensis); binding, microscale thermophoresis; 25 °C): 0.00355 ± 0.0019 µM
Cn1cc(CNCC2CCN(c3ncc(C(=O)NO)cn3)CC2)c2ccccc21  Kd (Isochorismatase domain-containing protein 1; inhibitor, competition pulldown; SW620 and MV4-11 lysate; 1 h): > 30.2 µM
CC(C)CC(=O)N[C@H](C(=O)N[C@H](C(=O)N[C@@H](CC(C)C)[C@@H](O)CC(=O)N[C@@H](C)C(=O)N[C@@H](CC(C)C)[C@@H](O)CC(N)=O)C(C)C)C(C)C  Kd (CTSD; binding, surface plasmon resonance): 0.724 µM
CC(C)C[C@H](NC(=O)[C@H](CCC(=O)O)NC(=O)[C@H](CCC(N)=O)NC(=O)[C@H](CO)NC(=O)CCCCCNC(=S)Nc1ccc2c(c1)C(=O)OC21c2ccc(O)cc2Oc2cc(O)ccc21)C(=O)N[C@@H](Cc1c[nH]cn1)C(=O)N[C@@H](CCCCN)C(=O)N[C@@H](CC(C)C)C(=O)N[C@@H](CCC(N)=O)C(=O)N[C@H](C(=O)N[C@@H](Cc1ccc(O)cc1)C(=O)N1CCC[C@H]1C(=O)N[C@@H](CCCNC(=N)N)C(=O)N[C@H](C(=O)N[C@@H](CC(N)=O)C(=O)N[C@H](C(=O)NCC(=O)N[C@@H](CO)C(=O)NCC(=O)N[C@H](C(=O)N1CCC[C@H]1C(N)=O)[C@@H](C)O)[C@@H](C)O)[C@@H](C)O)[C@@H](C)O  Kd (Amylin receptor AMY2; CALCR/RAMP2, extracellular domains (Homo sapiens, UniProt O60895+P30988); peptide binding, fluorescence polarization; pH 7.4, MBP-CTR ECD with 100 µM RAMP2 ECD): 1.7 µM
Nc1nc2c(ncn2[C@@H]2O[C@@H]3COP(=O)(O)O[C@H]4[C@@H](O)[C@H](n5cnc6c(=O)[nH]c(N)nc65)O[C@@H]4COP(=O)(O)O[C@H]3[C@H]2O)c(=O)[nH]1  Kd (Cell cycle histidine kinase CckA, CA domain (Caulobacter vibrioides, UniProt Q9X688); isothermal titration calorimetry; Caulobacter crescentus; 12 °C, together with: ADP 5 mM): 22 µM
NC(=O)c1cccnc1  Kd (Nicotinamide N-methyltransferase, SAM-bound (NNMT, Homo sapiens, UniProt P40261); substrate, SPR; 20 °C, together with: SAM): 31.6 µM
CCCCCCCCCCCCCCCC(=O)OC[C@H](COP(=O)(O)O[C@@H]1[C@H](O)[C@H](O)[C@@H](OP(=O)(O)O)[C@H](OP(=O)(O)O)[C@H]1O)OC(=O)CCCCCCCCCCCCCCC  Kd (TUT1 (Homo sapiens, UniProt Q9H6E5); binding, microscale thermophoresis; lipid micelles, together with: 5 nM labelled Star-PAP): 0.078 ± 0.024 µM
O=c1c(O)c(-c2ccc(O)c(O)c2)oc2cc(O)cc(O)c12  Kd (RPSA (Homo sapiens, UniProt P08865); binding, tryptophan fluorescence quenching): 0.32 ± 0.069 µM
CO[C@@H]1[C@@H](OC(N)=O)[C@@H](O)[C@H](Oc2ccc3c(O)c(NC(=O)c4ccc(O)c(CC=C(C)C)c4)c(=O)oc3c2C)OC1(C)C  Kd (Multidrug resistance operon repressor (mexR, Pseudomonas aeruginosa, UniProt P52003); microscale thermophoresis): 56.7 µM
CN1CCc2c(c3ccccc3n2Cc2ccc(C(=O)NO)cc2)C1  Kd (Isochorismatase domain-containing protein 1; inhibitor, competition pulldown; SW620 and MV4-11 lysate; 1 h): > 30.2 µM
CC(C)CC(=O)N[C@H](C(=O)N[C@H](C(=O)N[C@@H](CC(C)C)[C@@H](O)CC(=O)N[C@@H](C)C(=O)N[C@@H](CC(C)C)[C@@H](O)CC(=O)NCCCC[C@H](NC(=O)CCOCCOCCNC(=O)CN1CCN(CC(=O)O)CCN(CC(=O)O)CC1)C(=O)O)C(C)C)C(C)C  Kd (CTSD; binding, surface plasmon resonance): 0.645 µM
CCCCN(Cc1ccc(C(=O)NO)cc1)C(=O)Nc1ccccc1  Kd (Isochorismatase domain-containing protein 1; inhibitor, competition pulldown; SW620 and MV4-11 lysate; 1 h): > 30.2 µM
Nc1nc2c(ncn2[C@@H]2O[C@H](COP(=O)(O)O)[C@@H](O)[C@H]2O)c(=O)[nH]1  Kd (GUK1 (Homo sapiens, UniProt Q16774, Y81A); binding, ITC; 25 °C, together with: GMP): > 500 µM
Nc1ccccc1NC(=O)c1ccc(CNc2nccc(-c3cccnc3)n2)cc1  Kd (Isochorismatase domain-containing protein 1; inhibitor, competition pulldown; SW620 and MV4-11 lysate; 1 h): > 30.2 µM
N[C@@H](Cc1c[nH]cn1)C(=O)O  Kd (acetylcholine receptor, Rana temporaria; channel block, voltage clamp fluctuation; endplate; reduced Na+ mixture, voltage-dependent): ~15000 µM

For quick reference, copied from above:
Nc1cc(F)ccc1NC(=O)c1ccc(CNC(=O)/C=C/c2cccnc2)cc1  Kd (Isochorismatase domain-containing protein 1; inhibitor, competition pulldown; SW620 and MV4-11 lysate; 1 h): > 30.2 µM
CCCCN(Cc1ccc(C(=O)NO)cc1)C(=O)Nc1ccccc1  Kd (Isochorismatase domain-containing protein 1; inhibitor, competition pulldown; SW620 and MV4-11 lysate; 1 h): > 30.2 µM
